Published values from different studies.
Each line is one published result; not all experiments were run side by side. Numbers after ± are the reported error.
SNCA pre-formed fibrils: Alpha-synuclein, pre-formed fibrils (SNCA, Homo sapiens, UniProt P37840)
Urease: Urease (Canavalia ensiformis, UniProt P07374)
Chain of UniProt P07374 (whole entry, looked up): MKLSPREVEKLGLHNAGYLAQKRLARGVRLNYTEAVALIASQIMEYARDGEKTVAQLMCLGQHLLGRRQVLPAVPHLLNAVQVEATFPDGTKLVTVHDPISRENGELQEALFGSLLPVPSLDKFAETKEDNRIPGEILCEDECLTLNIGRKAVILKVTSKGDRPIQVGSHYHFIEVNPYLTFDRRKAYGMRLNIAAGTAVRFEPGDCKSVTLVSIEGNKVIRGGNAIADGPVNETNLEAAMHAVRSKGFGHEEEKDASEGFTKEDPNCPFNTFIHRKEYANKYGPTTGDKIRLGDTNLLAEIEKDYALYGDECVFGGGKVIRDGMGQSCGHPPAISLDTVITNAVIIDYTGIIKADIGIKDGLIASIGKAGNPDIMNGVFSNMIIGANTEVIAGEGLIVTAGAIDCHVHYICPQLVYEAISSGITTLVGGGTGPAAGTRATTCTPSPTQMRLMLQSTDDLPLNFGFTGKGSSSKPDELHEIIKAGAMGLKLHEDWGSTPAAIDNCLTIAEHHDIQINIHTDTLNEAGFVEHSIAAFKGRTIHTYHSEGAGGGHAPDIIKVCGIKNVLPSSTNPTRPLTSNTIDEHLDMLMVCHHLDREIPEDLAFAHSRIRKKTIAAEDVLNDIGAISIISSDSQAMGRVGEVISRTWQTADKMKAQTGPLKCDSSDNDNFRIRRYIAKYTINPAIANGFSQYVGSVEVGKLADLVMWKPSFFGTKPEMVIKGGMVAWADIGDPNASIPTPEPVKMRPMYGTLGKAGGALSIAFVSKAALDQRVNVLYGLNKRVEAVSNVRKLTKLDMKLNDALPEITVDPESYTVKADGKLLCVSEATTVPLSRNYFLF
SYK tandem SH2 domains: Tyrosine-protein kinase SYK, tandem SH2 domains (SYK, Homo sapiens, UniProt P43405)
crk3 with CYC6: crk3, with CYC6 (Leishmania mexicana, UniProt O15851)
PDE1C: Dual specificity calcium/calmodulin-dependent 3',5'-cyclic nucleotide phosphodiesterase 1C (PDE1C, Homo sapiens, UniProt Q14123)
Chain of UniProt Q14123 (whole entry, looked up): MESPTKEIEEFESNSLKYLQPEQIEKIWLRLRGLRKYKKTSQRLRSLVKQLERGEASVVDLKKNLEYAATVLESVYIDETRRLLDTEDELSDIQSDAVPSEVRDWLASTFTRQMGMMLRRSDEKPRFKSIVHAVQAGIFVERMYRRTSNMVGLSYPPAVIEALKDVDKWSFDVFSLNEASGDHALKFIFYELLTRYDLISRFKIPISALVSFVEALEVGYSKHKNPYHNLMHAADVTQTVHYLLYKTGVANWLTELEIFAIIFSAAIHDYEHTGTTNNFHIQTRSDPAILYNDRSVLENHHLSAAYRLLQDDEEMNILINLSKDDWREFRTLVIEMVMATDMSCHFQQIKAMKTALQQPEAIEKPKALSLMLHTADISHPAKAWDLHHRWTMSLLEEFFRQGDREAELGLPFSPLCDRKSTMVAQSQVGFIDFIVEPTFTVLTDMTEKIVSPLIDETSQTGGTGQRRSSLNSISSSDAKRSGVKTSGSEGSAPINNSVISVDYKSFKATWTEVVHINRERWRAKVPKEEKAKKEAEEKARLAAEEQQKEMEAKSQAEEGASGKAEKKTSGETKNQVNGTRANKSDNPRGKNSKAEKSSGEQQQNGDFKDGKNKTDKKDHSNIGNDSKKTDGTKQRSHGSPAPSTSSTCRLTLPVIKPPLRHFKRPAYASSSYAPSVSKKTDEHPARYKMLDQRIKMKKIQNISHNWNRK
Chain of UniProt Q96S37 (whole entry, looked up): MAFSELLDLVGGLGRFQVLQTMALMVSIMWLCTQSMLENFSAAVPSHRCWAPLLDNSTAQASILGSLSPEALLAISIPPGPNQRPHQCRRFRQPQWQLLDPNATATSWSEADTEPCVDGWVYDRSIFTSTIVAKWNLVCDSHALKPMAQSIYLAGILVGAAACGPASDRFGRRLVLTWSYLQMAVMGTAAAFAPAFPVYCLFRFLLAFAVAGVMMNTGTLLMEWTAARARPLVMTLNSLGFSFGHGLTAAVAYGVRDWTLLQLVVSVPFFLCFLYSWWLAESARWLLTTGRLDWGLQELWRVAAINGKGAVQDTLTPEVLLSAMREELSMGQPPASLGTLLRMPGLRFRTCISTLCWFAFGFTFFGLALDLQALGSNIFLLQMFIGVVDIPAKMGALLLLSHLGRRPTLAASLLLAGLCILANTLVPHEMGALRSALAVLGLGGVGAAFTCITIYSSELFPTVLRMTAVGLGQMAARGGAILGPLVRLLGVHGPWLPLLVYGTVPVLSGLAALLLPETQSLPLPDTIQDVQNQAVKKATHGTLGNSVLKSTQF
Chain of UniProt P17706 (whole entry, looked up): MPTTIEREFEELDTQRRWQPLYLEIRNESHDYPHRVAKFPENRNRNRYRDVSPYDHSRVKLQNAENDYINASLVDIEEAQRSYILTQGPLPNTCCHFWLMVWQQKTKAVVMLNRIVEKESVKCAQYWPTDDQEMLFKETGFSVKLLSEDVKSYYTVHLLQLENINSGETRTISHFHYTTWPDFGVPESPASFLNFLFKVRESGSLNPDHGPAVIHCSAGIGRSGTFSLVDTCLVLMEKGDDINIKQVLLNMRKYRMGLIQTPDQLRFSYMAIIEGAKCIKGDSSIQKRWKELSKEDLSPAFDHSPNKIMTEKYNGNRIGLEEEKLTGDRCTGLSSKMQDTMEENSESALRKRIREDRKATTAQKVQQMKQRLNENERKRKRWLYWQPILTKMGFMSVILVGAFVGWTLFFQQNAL
Chain of UniProt Q07817 (whole entry, looked up): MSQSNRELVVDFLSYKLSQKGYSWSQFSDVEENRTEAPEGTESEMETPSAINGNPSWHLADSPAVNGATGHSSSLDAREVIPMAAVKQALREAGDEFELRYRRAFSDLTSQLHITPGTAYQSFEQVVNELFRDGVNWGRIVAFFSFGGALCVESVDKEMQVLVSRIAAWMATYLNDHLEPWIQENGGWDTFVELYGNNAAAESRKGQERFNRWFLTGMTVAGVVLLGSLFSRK
Chain of UniProt P07550 (whole entry, unmodified, looked up): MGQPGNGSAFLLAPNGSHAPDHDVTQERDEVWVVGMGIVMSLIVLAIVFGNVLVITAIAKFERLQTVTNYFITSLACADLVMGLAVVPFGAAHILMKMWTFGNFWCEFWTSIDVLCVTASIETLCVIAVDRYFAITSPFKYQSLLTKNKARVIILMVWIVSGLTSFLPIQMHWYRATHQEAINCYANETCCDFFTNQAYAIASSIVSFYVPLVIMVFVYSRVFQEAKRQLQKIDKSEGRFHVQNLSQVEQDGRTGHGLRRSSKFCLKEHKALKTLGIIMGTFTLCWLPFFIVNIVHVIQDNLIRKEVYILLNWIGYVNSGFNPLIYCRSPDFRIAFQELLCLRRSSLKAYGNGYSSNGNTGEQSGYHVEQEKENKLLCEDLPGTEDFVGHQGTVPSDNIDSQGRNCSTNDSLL
Chain of UniProt Q9HBH9 (whole entry, looked up): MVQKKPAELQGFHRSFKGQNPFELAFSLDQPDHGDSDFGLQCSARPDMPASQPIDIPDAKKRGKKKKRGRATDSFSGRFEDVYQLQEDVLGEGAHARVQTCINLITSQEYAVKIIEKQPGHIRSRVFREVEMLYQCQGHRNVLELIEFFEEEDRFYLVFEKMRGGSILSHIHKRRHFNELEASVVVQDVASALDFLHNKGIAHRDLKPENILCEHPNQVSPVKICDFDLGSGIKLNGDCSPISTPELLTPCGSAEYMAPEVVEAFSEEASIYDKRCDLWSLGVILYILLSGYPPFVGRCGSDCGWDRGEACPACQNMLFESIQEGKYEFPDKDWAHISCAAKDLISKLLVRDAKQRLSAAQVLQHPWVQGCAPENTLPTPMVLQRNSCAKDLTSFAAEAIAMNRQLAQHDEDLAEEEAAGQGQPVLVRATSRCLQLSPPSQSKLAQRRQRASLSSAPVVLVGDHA
Chain of UniProt O95931 (whole entry, looked up): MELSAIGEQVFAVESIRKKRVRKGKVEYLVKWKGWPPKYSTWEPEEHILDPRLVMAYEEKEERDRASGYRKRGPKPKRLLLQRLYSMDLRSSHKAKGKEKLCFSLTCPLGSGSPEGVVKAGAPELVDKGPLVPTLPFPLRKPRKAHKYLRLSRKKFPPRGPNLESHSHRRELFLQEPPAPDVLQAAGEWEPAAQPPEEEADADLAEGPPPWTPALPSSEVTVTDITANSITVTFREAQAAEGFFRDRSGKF
Chain of UniProt P14416 (whole entry, looked up): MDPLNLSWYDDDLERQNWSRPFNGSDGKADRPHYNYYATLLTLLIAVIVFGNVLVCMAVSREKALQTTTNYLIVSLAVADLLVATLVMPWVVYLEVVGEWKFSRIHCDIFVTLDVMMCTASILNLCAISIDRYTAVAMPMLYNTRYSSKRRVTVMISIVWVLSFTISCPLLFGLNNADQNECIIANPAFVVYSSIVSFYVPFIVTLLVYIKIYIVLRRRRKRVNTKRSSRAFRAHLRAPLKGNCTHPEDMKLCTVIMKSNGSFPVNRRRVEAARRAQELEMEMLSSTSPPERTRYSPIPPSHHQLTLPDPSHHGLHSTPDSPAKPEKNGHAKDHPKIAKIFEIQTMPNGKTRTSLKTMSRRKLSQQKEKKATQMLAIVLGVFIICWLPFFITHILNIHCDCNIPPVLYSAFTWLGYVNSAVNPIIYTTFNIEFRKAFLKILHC
Chain of UniProt Q13547 (whole entry, looked up): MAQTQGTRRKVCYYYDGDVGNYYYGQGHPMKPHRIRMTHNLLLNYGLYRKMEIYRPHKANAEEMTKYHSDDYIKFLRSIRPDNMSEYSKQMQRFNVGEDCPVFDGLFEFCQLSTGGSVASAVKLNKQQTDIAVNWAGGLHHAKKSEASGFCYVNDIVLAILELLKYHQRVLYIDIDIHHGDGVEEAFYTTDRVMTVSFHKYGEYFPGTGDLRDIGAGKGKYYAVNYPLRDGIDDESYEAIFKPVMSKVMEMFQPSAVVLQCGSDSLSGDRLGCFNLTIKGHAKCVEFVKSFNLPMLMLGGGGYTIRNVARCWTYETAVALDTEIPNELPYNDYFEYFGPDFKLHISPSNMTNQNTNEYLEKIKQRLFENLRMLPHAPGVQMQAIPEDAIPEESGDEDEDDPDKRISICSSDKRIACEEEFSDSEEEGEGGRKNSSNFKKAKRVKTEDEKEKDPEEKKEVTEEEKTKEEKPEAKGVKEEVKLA

SMILES	target	assay	system	conditions	IC50 [µM]
Cc1cccc(NS(=O)(=O)c2c(C)[nH]c(C)c2C(=O)N2CCCC2)c1	D(2) dopamine receptor (DRD2, Homo sapiens, UniProt P14416)				> 100
O=C(Cc1ccc(OCc2ccccc2)cc1)NC1(C(=O)O)CCN(C(=O)c2ccc(-c3cccc(Cl)c3)cc2)CC1	C-X-C chemokine receptor type 5 (CXCR5, Homo sapiens, UniProt P32302)	antagonist, GloSensor cAMP			> 10
CCN(CC)CC(=O)Nc1cccc(-n2cc(-c3ccc4ccc(-c5cn(-c6cccc(NC(=O)CN(CC)CC)c6)nn5)cc4c3)nn2)c1	Tyrosine-protein kinase SYK, non-phosphorylated (SYK, Homo sapiens, UniProt P43405)	enzyme activity, inhibitor			> 10
COc1cc(O)cc(CCc2ccc(OC)c(O)c2CC=C(C)C)c1	rat intestinal maltase	inhibitor	rat intestinal acetone powder	10 min, 37 °C, together with: maltose 10 mM	860 ± 90
CN1CCN(c2ccc3cc(COC(=O)Nc4cccc(C(=O)NO)c4)ccc3c2)CC1	SNCA pre-formed fibrils	binding to mouse LAG3 D1, inhibitor, ELISA		together with: FLAG-α-syn PFFs 100 nM	0.535
C[S@@](=N)(=O)c1ccc(C(=O)Nc2cc(-c3ccc(F)cc3)ccc2N)cc1	Histone deacetylase (HDAC1 and HDAC2), in Sin3 complex (HDAC1/HDAC2, Homo sapiens, UniProt Q13547+Q92769)	enzyme activity, inhibitor			> 100
N#Cc1cccc(-c2cc(CN3c4ccccc4C=Cc4ccccc43)on2)c1	Urease	enzyme activity, inhibitor			7.91
CCN(CC)Cc1ccc2cc(COC(=O)Nc3cccc(C(=O)NO)c3)ccc2c1	SNCA pre-formed fibrils	binding to mouse LAG3 D1, inhibitor, ELISA		together with: FLAG-α-syn PFFs 100 nM	8.44
COc1cc(F)c(-c2cc(Cn3cnc4c(N)ncnc43)c(N3CCC[C@](N)([C@H](O)C(F)F)C3)cn2)cc1F	Histone-lysine N-methyltransferase SETD2 (SETD2, Homo sapiens, UniProt Q9BYW2)	enzyme activity, inhibitor			7.63
C[C@H]1[C@@H](O)O[C@@H]2O[C@@]3(C)CC[C@H]4[C@H](C)CC[C@@H]1[C@@]24OO3	Bcl-2-like protein 1 (BCL2L1, Homo sapiens, UniProt Q07817)	binding, displacement, fluorescence polarization		together with: labelled Bid BH3 peptide	> 200
COc1ccc(Nc2cc(NC3CC3)n3ncc(C#N)c3n2)cc1	Serine/threonine-protein kinase Sgk1 (SGK1, Homo sapiens, UniProt O00141)	inhibitor			3.6
CC(C)(Sc1nc2ncccc2n1Cc1ccc(Br)c2ccccc12)C(=O)O	Solute carrier family 22 member 12 (SLC22A12, Homo sapiens, UniProt Q96S37)	transporter uptake, inhibitor, radiometric			0.332
Cc1n[nH]c(=S)n1C	SYK tandem SH2 domains	binding, inhibitor, TR-FRET		together with: FITC-FCER1G phospho-ITAM peptide	> 100
Brc1cccc(-c2cc(CN3c4ccccc4C=Cc4ccccc43)on2)c1	Urease	enzyme activity, inhibitor			6.77
N[C@@H](CCC(=O)N[C@@H](CS[Se]Cc1ccc(-c2cccc(C(O)c3ccc(Cl)c(Cl)c3)c2)cc1)C(=O)NCC(=O)O)C(=O)O (some centres unmarked)	Tyrosine-protein phosphatase non-receptor type 2 (PTPN2, Homo sapiens, UniProt P17706)	enzyme activity, inhibitor		together with: pNPP, GSH 1 mM	40.2
O=C(Nc1cc(-c2cccnc2)[nH]n1)c1ccccc1	crk3 with CYC6	enzyme activity, inhibitor, radiometric		together with: Leishmania major CYC6 cyclin, 1 µM ATP	23
CC(Nc1nc2c(cnn2C(C)(C)C)c(=O)n1Cc1cccc(F)c1)c1ccccn1 (centres unmarked)	PDE1C	enzyme activity, inhibitor, radiometric			0.0032
Cc1nn(-c2cccc(N)c2)c(=O)c2cnc(Nc3ccc(N4CCNCC4)cc3)nc12	Mitogen-activated protein kinase 12 (MAPK12, Homo sapiens, UniProt P53778)	SelectScreen kinase			> 10

SMILES	target	assay	system	conditions	IC50 [µM]
Fc1ccc(Nc2nc(NC3CCCCC3)c3cc(Br)ccc3n2)cc1F	Beta-2 adrenergic receptor (ADRB2, Homo sapiens, UniProt P07550, F133L)	β-arrestin2 recruitment, antagonist, BRET	HEK293	mutant F133L, together with: isoprenaline 1 µM	0.501
CC(C)(COC(=O)/C=C/C=C/c1ccc2c(c1)OCO2)CC1=C(O)C(=O)c2ccccc2C1=O	Alpha-glucosidase MAL12 (MAL12, Saccharomyces cerevisiae S288c, UniProt P53341)	enzyme activity, inhibitor			12.6
Cn1cc(-c2ccc3cc(NC(=O)Nc4cccc(C(=O)NO)c4)ccc3c2)cn1	SNCA pre-formed fibrils	binding to RAGE, inhibitor, ELISA		together with: FLAG-α-syn PFFs 100 nM	6.21
CC(C)C[C@H](NC(=O)[C@H](Cc1ccc(CN)cc1)NC(=O)[C@H](Cc1ccccc1)N=[N+]=[N-])C(=O)N[C@H](C(=O)[C@@]1(C)CO1)C1CCCCC1	Proteasome subunit beta type-10 (Homo sapiens, UniProt P40306)	inhibitor, biochemical			4.84
C[C@@]1(C(=O)O)[C@@H](O)CC[C@]2(C)c3cc4c(cc3CC[C@@H]12)[nH]c1ccc(S(=O)(=O)n2c3ccccc3c3cc5c(cc32)CC[C@H]2[C@](C)(C(=O)O)[C@@H](O)CC[C@]52C)cc14	Carbonic anhydrase 1 (CA1, Homo sapiens, UniProt P00915)	enzyme activity, inhibitor, absorbance			3
Nc1ncc(-c2cc(-c3cnn(CC(F)(F)F)c3)ncc2F)nc1C(=O)NC1CNCC(F)C1 (centres unmarked)	MAP kinase-interacting serine/threonine-protein kinase 2 (MKNK2, Homo sapiens, UniProt Q9HBH9)	enzyme activity, inhibitor, radiometric			0.209
CCn1nc(Cl)c2c1-c1cnc(N)c(c1)O[C@H](C)c1cc(F)ccc1-c1nn(C)cc1C2	Tyrosine-protein kinase Fer (FER, Homo sapiens, UniProt P16591)	enzyme activity, inhibitor, radiometric			0.058
CC(=O)N(C)CCN1CCN(c2cnc3c(cc(C(=O)NCc4ccc(Cl)cc4)c(=O)n3CC(=O)N3CC(C)(F)C3)n2)C1=O	DNA polymerase catalytic subunit (Human cytomegalovirus, UniProt P08546)	enzyme activity		at least duplicate	0.84
Cc1n[nH]c(=O)n1C	SYK tandem SH2 domains	binding, inhibitor, TR-FRET		together with: FITC-FCER1G phospho-ITAM peptide	> 100
COc1cc(OC)c(/N=N/c2c(Cl)cc(C(=O)NO)cc2Cl)c(OC)c1	Urease	enzyme activity, inhibitor, absorbance		pH 7.3	> 512
CN(CB(O)O)C(=S)[C@@H](N)CCC(=O)O	Dipeptidyl peptidase 8 (Homo sapiens, UniProt Q6V1X1)	enzyme activity, inhibitor, fluorescence			12
Brc1cnn2ccc(Nc3ccc(N4CCOCC4)cc3)nc12	crk3 with CYC6	enzyme activity, inhibitor, radiometric		together with: Leishmania major CYC6 cyclin, 1 µM ATP	10
CC(C)(C)n1ncc2c(=O)n(Cc3cccc(F)c3)c(NCc3cccnc3)nc21	PDE1C	enzyme activity, inhibitor, radiometric			0.004
Cc1nc(S(=O)(=O)Nc2cc3c(cc2Oc2cccc(COCC(C)C)c2)n(C)c(=O)n3C)cn1C	Transcription initiation factor TFIID subunit 1-like, BD2 (TAF1L, Homo sapiens, UniProt Q8IZX4)	HTRF		GST-tagged protein	> 20
CC(C)C[C@H](NC(=O)[C@@H](NC(=O)[C@H](Cc1ccccc1)NC(=O)c1ccc(C(C)(C)C)cc1)C1CCCC1)C(=O)N[C@@H](CCCCN(C)C1CC2CCC1C2)C(=O)N[C@@H](CO)C(N)=O (some centres unmarked)	Chromobox protein homolog 7 (Homo sapiens, UniProt O95931)	ligand displacement, TR-FRET			> 30
O=C(Nc1cc(C2CC2)[nH]n1)C1CCC1	crk3 with CYC6	enzyme activity, inhibitor, radiometric		together with: Leishmania major CYC6 cyclin, 1 µM ATP	2.1
Cc1cccc(-c2cc(CN3c4ccccc4C=Cc4ccccc43)on2)c1	Urease	enzyme activity, inhibitor			9.48

A few entries again:
SMILES	target	assay	system	conditions	IC50 [µM]
COc1cc(OC)c(/N=N/c2c(Cl)cc(C(=O)NO)cc2Cl)c(OC)c1	Urease	enzyme activity, inhibitor, absorbance		pH 7.3	> 512
Brc1cccc(-c2cc(CN3c4ccccc4C=Cc4ccccc43)on2)c1	Urease	enzyme activity, inhibitor			6.77
C[C@H]1[C@@H](O)O[C@@H]2O[C@@]3(C)CC[C@H]4[C@H](C)CC[C@@H]1[C@@]24OO3	Bcl-2-like protein 1 (BCL2L1, Homo sapiens, UniProt Q07817)	binding, displacement, fluorescence polarization		together with: labelled Bid BH3 peptide	> 200
Cc1nc(S(=O)(=O)Nc2cc3c(cc2Oc2cccc(COCC(C)C)c2)n(C)c(=O)n3C)cn1C	Transcription initiation factor TFIID subunit 1-like, BD2 (TAF1L, Homo sapiens, UniProt Q8IZX4)	HTRF		GST-tagged protein	> 20
COc1ccc(Nc2cc(NC3CC3)n3ncc(C#N)c3n2)cc1	Serine/threonine-protein kinase Sgk1 (SGK1, Homo sapiens, UniProt O00141)	inhibitor			3.6
